{"data": "Measured values pooled from the literature", "note": "A part holds a random share of what one study measured. Substitutions count along the parent as printed."}
{"data": "Study 1", "target": "Histone acetyltransferase KAT6A, winged helix 2, GST fusion (KAT6A, Homo sapiens, UniProt Q92794, residues 85-181)", "method": "protein binding microarray", "molecule type": "double-stranded DNA, one strand shown", "sample": "in vitro", "concentration": "not given", "notes": "8-mer, flanks averaged, mean of 2 arrays, mostly near background", "relative to": "not given", "direction": "higher = stronger binding", "Construct (chain)": "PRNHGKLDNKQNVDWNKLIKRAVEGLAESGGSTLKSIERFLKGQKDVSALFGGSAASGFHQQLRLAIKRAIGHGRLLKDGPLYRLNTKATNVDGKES"}
{"Sequence": "CCTCTGCC", "E-score": 0.0202}
{"Sequence": "CGACTAAC", "E-score": 0.0618}
{"Sequence": "TACCTTCA", "E-score": 0.0624}
{"Sequence": "ACTCTGTA", "E-score": -0.0299}
{"Sequence": "TCCGCGCA", "E-score": 0.0267}
{"Sequence": "ATTCCCAA", "E-score": 0.037}
{"Sequence": "GTCGGAAC", "E-score": 0.0043}
{"Sequence": "GCTATCGA", "E-score": -0.00149}
{"Sequence": "AAATTTGA", "E-score": 0.0723}
{"Sequence": "CATTCACC", "E-score": -0.00897}
{"Sequence": "CCAGAACG", "E-score": 0.0983}
{"Sequence": "GCGCAGCA", "E-score": 0.0142}
{"Sequence": "CCGTCACA", "E-score": 0.0408}
{"Sequence": "CCATTATA", "E-score": -0.0565}
{"Sequence": "ACCGGGCC", "E-score": 0.0878}
{"Sequence": "GCGAGATA", "E-score": 0.0736}
{"data": "Study 2", "target": "Prothrombin, mature alpha-thrombin (F2, Homo sapiens, UniProt P00734)", "method": "aptamer microarray, sandwich", "molecule type": "DNA with 2'F-ANA", "sample": "in vitro", "concentration": "200 nM", "notes": "whole 15-mer aptamer, many near background", "together with": "Cy3 exosite-II aptamer, 400 nM", "direction": "higher = stronger binding", "sequence": "GGTTGGTGTGGTTGG"}
{"Modification": "2'F-ANA at 3 5 8 9 11 12 13 14", "mean fluorescence intensity": "74 a.u."}
{"Modification": "2'F-ANA at 5 9 11 15", "mean fluorescence intensity": "61.4 a.u."}
{"Modification": "2'F-ANA at 2 3 4 5 7 9 11", "mean fluorescence intensity": "75.8 a.u."}
{"Modification": "2'F-ANA at 1 3 6 8 9 10 11", "mean fluorescence intensity": "74.6 a.u."}
{"Modification": "2'F-ANA at 3 6 9 10 11 12 13", "mean fluorescence intensity": "496 a.u."}
{"Modification": "2'F-ANA at 1 2 4 5 7 8 9 10 11 13 14 15", "mean fluorescence intensity": "48.8 a.u."}
{"Modification": "2'F-ANA at 1 3 5 6 10 11 13 14 15", "mean fluorescence intensity": "53.9 a.u."}
{"Modification": "2'F-ANA at 1 2 5 6 7 9 10 12 13 14 15", "mean fluorescence intensity": "50.2 a.u."}
{"Modification": "2'F-ANA at 1 2 3 4 5 8 10 11 12 13 15", "mean fluorescence intensity": "52.1 a.u."}
{"Modification": "2'F-ANA at 1 2 3 5 6 7 9 10 11 12", "mean fluorescence intensity": "50.7 a.u."}
{"Modification": "2'F-ANA at 1 2 4 5 10 13 15", "mean fluorescence intensity": "46.6 a.u."}
{"Modification": "2'F-ANA at 1 2 3 6 8 9 10 14 15", "mean fluorescence intensity": "57.5 a.u."}
{"Modification": "2'F-ANA at 1 4 7 8 9 11 15", "mean fluorescence intensity": "139 a.u."}
{"Modification": "2'F-ANA at 3 4 6 12 13 15", "mean fluorescence intensity": "577 a.u."}
{"Modification": "2'F-ANA at 1 2 7 8 13", "mean fluorescence intensity": "138 a.u."}
{"Modification": "2'F-ANA at 1 2 4 5 6 7 9 11 13 15", "mean fluorescence intensity": "62.4 a.u."}
{"data": "Study 3", "target": "CCNB2, cyclin fold, Cln2 fusion (human)", "method": "yeast growth competition, sequencing", "sample": "yeast", "notes": "weak parent motif", "relative to": "not given", "direction": "higher = stronger binding", "starting sequence": "CDT1 docking peptide (human); PPARRRLRLSVDE; partner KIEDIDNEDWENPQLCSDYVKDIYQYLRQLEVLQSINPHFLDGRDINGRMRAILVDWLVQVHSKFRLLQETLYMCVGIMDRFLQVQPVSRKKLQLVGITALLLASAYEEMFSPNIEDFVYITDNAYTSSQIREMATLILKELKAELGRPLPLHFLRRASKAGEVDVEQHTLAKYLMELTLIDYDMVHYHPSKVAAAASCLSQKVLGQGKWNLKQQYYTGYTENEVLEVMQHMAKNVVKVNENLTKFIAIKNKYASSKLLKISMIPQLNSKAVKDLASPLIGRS"}
{"Substitution": "PAARRRLRLSVDE [P2A]", "normalised enrichment score": 0.668}
{"Substitution": "PPARRRLRASVDE [L9A]", "normalised enrichment score": 0.414}
{"Substitution": "PPARRRARLSVDE [L7A]", "normalised enrichment score": 0.624}
{"Substitution": "PPARRRLRLSADE [V11A]", "normalised enrichment score": 0.27}
{"Substitution": "PPARKRLRLSVDE [R5K]", "normalised enrichment score": 0.863}
{"Substitution": "PPARARLRLSVDE [R5A]", "normalised enrichment score": 0.13}
{"Substitution": "PPARRRLRLSVDA [E13A]", "normalised enrichment score": 0.816}
{"data": "Other studies, line by line"}
{"Substance": "PhoQ, residues 284 288 289 292 302 303 TTSMTC", "target": "PhoP, residues 12 14 15 18 19 NYFRM (Escherichia coli, UniProt P23836)", "test": "Sort-seq, measured: YFP reporter", "system": "E. coli", "conditions": "PhoQ-PhoP variant library, together with: 10 µM Mg2+", "scale": "relative to: high Mg2+ state, higher = stronger signaling", "endpoint": "fold induction", "result": 7.61}
{"note": "For quick reference, copied from above (study 2):"}
{"Modification": "2'F-ANA at 1 2 3 4 5 8 10 11 12 13 15", "mean fluorescence intensity": "52.1 a.u."}
{"Modification": "2'F-ANA at 2 3 4 5 7 9 11", "mean fluorescence intensity": "75.8 a.u."}
{"Modification": "2'F-ANA at 1 2 4 5 6 7 9 11 13 15", "mean fluorescence intensity": "62.4 a.u."}
